Measurements gathered from unrelated publications.
Organism: Escherichia coli

With `CC[C@H](C)[C@H](N)C1=N[C@H](C(=O)N[C@@H](CC(C)C)C(=O)N[C@H](CCC(=O)O)C(=O)N[C@H](C(=O)N[C@H]2CCCCNC(=O)[C@H](CC(N)=O)NC(=O)[C@@H](CC(=O)O)NC(=O)[C@H](Cc3c[nH]cn3)NC(=O)[C@@H](Cc3ccccc3)NC(=O)[C@H](Cc3ccccc3)NC(=O)[C@@H](CCCN)NC2=O)[C@@H](C)CC)CS1` the MIC was > 64 µg/mL (broth microdilution; ATCC 25922, LB medium; 18 h, 37 °C, with: ZnSO4 0.3 mM).
`CCCCCCCCCCCC[S+]([O-])CC1OC(OC2C(N)CC(N)C(OC3OC(CN)C(O)CC3N)C2O)C(O)C(N)C1O` (mixture of isomers) gave an MIC of > 150 µg/mL (BL21(DE3) pET22b).
For `CN[C@H](CC(C)C)C(=O)N[C@H]1C(=O)N[C@@H](CC(N)=O)C(=O)N[C@H]2C(=O)N[C@H]3C(=O)N[C@H](C(=O)N[C@H](C(=O)NCc4cn(CCOCCOCCOCCC(=O)N[C@H](C(=O)N[C@@H](CCN)C(=O)N[C@H]5CCNC(=O)[C@H]([C@@H](C)O)NC(=O)[C@H](CCN)NC(=O)[C@H](CCN)NC(=O)[C@H](CC(C)C)NC(=O)[C@@H](CC(C)C)NC(=O)[C@H](CCN)NC5=O)[C@@H](C)O)nn4)c4cc(O)cc(O)c4-c4cc3ccc4O)[C@H](O)c3ccc(c(Cl)c3)Oc3cc2cc(c3O[C@@H]2O[C@H](CO)[C@@H](O)[C@H](O)[C@H]2O[C@H]2C[C@](C)(N)[C@H](O)[C@H](C)O2)Oc2ccc(cc2Cl)[C@H]1O`, the MIC was 32 µg/mL (broth microdilution; ATCC 25922; 18 to 20 h, 37 °C, 0.002% polysorbate 80).
`CC(C)C[C@H](NC(=O)[C@H](CCCCN)NC(=O)[C@H](CCCCNC(=O)[C@H](CC(C)C)NC(=O)[C@H](CCCCN)NC(=O)[C@H](CCCCNC(=O)[C@H](CC(C)C)NC(=O)[C@H](CCCCN)NC(=O)[C@H](CCCCNC(=O)[C@H](CC(C)C)NC(=O)[C@@H](N)CCCCN)NC(=O)[C@H](CC(C)C)NC(=O)[C@@H](N)CCCCN)NC(=O)[C@H](CC(C)C)NC(=O)[C@H](CCCCN)NC(=O)[C@H](CCCCNC(=O)[C@H](CC(C)C)NC(=O)[C@@H](N)CCCCN)NC(=O)[C@H](CC(C)C)NC(=O)[C@@H](N)CCCCN)NC(=O)[C@H](CC(C)C)NC(=O)[C@H](CCCCN)NC(=O)[C@H](CCCCNC(=O)[C@H](CC(C)C)NC(=O)[C@H](CCCCN)NC(=O)[C@H](CCCCNC(=O)[C@H](CC(C)C)NC(=O)[C@@H](N)CCCCN)NC(=O)[C@H](CC(C)C)NC(=O)[C@@H](N)CCCCN)NC(=O)[C@H](CC(C)C)NC(=O)[C@H](CCCCN)NC(=O)[C@H](CCCCNC(=O)[C@H](CC(C)C)NC(=O)[C@@H](N)CCCCN)NC(=O)[C@H](CC(C)C)NC(=O)[C@@H](N)CCCCN)C(N)=O` has an MIC of 1 µg/mL (broth microdilution; W3110; 37 °C).
With `CCCCCCCCCCCCCCCCCCCCCCSCC1OC(OC2C(N)CC(N)C(OC3OC(CN)C(O)CC3N)C2O)C(O)C(N)C1O` (stereo not shown) the MIC was > 150 µg/mL (BL21(DE3) Eis-expressing).
For `CC(C)C[C@H](NC(=O)[C@H](CC(C)C)NC(=O)[C@H](CCCCN)NC(=O)[C@@H]1CCCN1C(=O)[C@H](CC(C)C)NC(=O)[C@H](CC(C)C)NC(=O)[C@H](CCCCN)NC(=O)[C@H](CC(C)C)NC(=O)[C@H](CC(C)C)NC(=O)[C@H](CO)NC(=O)CNC(=O)[C@H](CC(C)C)NC(=O)[C@@H](N)CC(C)C)C(N)=O`, the MIC was 12.5 µM (broth microdilution; K12).
The MIC of `CC(C)C[C@@H]1NC(=O)[C@H](C)NC(=O)[C@@H]2NC(=O)[C@H](CO)NC(=O)[C@@H](CCCCN)NC(=O)[C@H](NC(=O)[C@@H](N)Cc3ccccc3)CCCCCCCC[C@H](NC1=O)C(=O)O[C@H]2C` is reported as > 32 µg/mL (ATCC 10798; TFA salt).
The MIC of `OB(O)c1ccc(OCc2ccccc2)nc1F` is reported as 4 µg/mL (bacterial growth; TEM-3 ESBL clinical isolate; cefotaxime alone).
`Cc1cc(N)c2cc(NC(=O)c3ccc4cc(C5CC5)ccc4c3)ccc2n1` gave an MIC of 50 µM (hyperporinated wild type).
The MIC of `COc1ccc(-c2cc(C(F)(F)F)n3nc(N)nc3n2)cc1OC` is reported as > 128 µg/mL (microbial growth, broth dilution; DC2; 20 h).
For `Cc1ccc(SCC2OC(OC3C(N)CC(N)C(OC4OC(CN)C(O)CC4N)C3O)C(O)C(N)C2O)cc1` (stereo not shown), the MIC was 18.8 µg/mL (BL21(DE3)).
`CCCCCCCCCCCCCC(=O)N[C@@H](Cc1ccccc1)C(=O)N[C@@H](CCCCN)C(=O)N[C@@H](CCCCN)C(=O)N[C@@H](CCCCN)C(=O)N[C@@H](CCCCN)C(N)=O` gave an MIC of 16 µg/mL (broth microdilution; K12, water pH 7; 18 h, 37 °C).
For `CC[C@H](C)[C@H](NC(=O)[C@H](CC(=O)O)NC(=O)[C@H](Cc1ccccc1)NC(=O)[C@H](CC(C)C)NC(=O)CN)C(=O)N[C@H](C(=O)N[C@@H](CCCCN)C(=O)N[C@@H](CCCCN)C(=O)N[C@H](C(=O)N[C@@H](CC(C)C)C(=O)N[C@@H](CCCCN)C(=O)N[C@@H](CC(C)C)C(=O)N[C@@H](CC(C)C)C(=O)N[C@@H](CCCCN)C(N)=O)C(C)C)C(C)C`, the MIC was > 20 µM (ATCC 25922, CAMHB; 18 h, 37 °C).
The MIC of `CCCCCCCCCCCCCCCCCC(=O)N[C@@H](CCCNC(=N)N)C(=O)N[C@@H](CCCNC(=N)N)C(=O)N[C@@H](CCCNC(=N)N)C(=O)N[C@@H](CCCNC(=N)N)C(=O)N[C@@H](CCCNC(=N)N)C(N)=O` is reported as ≥ 32 µg/mL (broth microdilution; K12; 16-24 h, 37 °C, prepared at pH 7).
The MIC of `C[C@@](O)(C(F)F)[C@H](NC(=O)c1ccc(C#CC#CC2CC2)cc1)C(=O)NO` is reported as 0.01 µg/mL (broth microdilution; W3110, CAMHB).
The MIC of `CCO[C@H]1[C@H](O)[C@@H](N)[C@@H](O[C@H]2[C@H](O[C@@H]3O[C@H](CO)[C@@H](O[C@H]4O[C@@H](CN)[C@@H](O)[C@H](O)[C@H]4N)[C@H]3O)[C@@H](O)[C@H](N)C[C@@H]2N)O[C@@H]1CO` is reported as 32 µg/mL (broth microdilution; clinical isolate AG 002).
`Cc1cc(N)c2cc(NC(=O)c3ccc4c(-c5ccccc5O)cccc4c3)ccc2n1` has an MIC of 6.25 µM (ΔtolC efflux-deficient).
The MIC of `CC(C)[C@H](NC(=O)[C@H]1NC(=O)[C@H](CO)NC(=O)[C@H](CC(N)=O)NC(=O)[C@@H](N)Cc2c[nH]c3cc(ccc23)C1C(N)=O)C(=O)N[C@H]1Cc2cn(cn2)C(c2ccc(O)cc2)[C@@H](C(=O)N[C@@H](CCCNC(=N)N)C(=O)N[C@@H](Cc2ccccc2)C(=O)O)NC(=O)[C@H](CO)NC1=O` (stereo partly shown) is reported as 16 µg/mL (K-12 MG1655).
`CC[C@H](C)[C@H](NC(=O)[C@H](CCCN)NC(=O)[C@H](CC(N)=O)NC(=O)[C@H](CC(C)C)NC(=O)[C@H](Cc1ccccc1)NC(=O)[C@H](CCCN)NC(=O)[C@H](CCCNC(=N)N)NC(=O)[C@H](CC(C)C)NC(=O)[C@H](CC(C)C)NC(=O)[C@H](CCCN)NC(=O)[C@H](CCCNC(=N)N)NC(=O)[C@H](CC(C)C)NC(=O)CNC(C)=O)C(=O)N[C@@H](CCCN)C(=O)N[C@@H](CCCNC(=N)N)C(N)=O` gave an MIC of 3.12 µM (broth microdilution; ATCC 25922).
The MIC of `CC[C@H](C)[C@H](NC(=O)[C@H](CO)NC(=O)[C@H](CO)NC(=O)[C@H](Cc1ccccc1)NC(=O)CN)C(=O)N[C@@H](Cc1ccccc1)C(=O)N[C@@H](CCCNC(=N)N)C(N)=O` is reported as > 128 µM (ATCC 8739; 20% FBS).
For `CC(C)[C@@H]1NC(=O)[C@@H]2CCCN2C(=O)[C@@H](C)NC(=O)[C@H](CO)NC(=O)[C@H](C)NC(=O)[C@H](C(C)(C)C)NC(=O)[C@H](CCO)NC(=O)[C@H](Cc2c[nH]c3ccccc23)NC(=O)[C@H](CCO)NC(=O)[C@@H](CCN)NC(=O)[C@H](CCC(N)=O)NC(=O)[C@H](CCN)NC(=O)[C@H](Cc2ccc(O)cc2)NC(=O)[C@H]([C@@H](C)O)NC1=O`, the MIC was > 64 µg/mL (broth microdilution; ATCC 35218, CAMHB with polysorbate-80; 16 h).
`CC[C@H](C)[C@H](NC(=O)[C@H](NC(=O)[C@@H](CCCNC(=N)N)NC(=O)[C@@H](N)COC(=O)[C@@H](NC(=O)[C@@H](Cc1ccccc1)NC)[C@@H](C)CC)[C@@H](C)CC)C(=O)N[C@@H](CO)C(=O)N[C@H]1C(=O)N[C@@H](C)C(=O)N[C@@H](CC(C)C)C(=O)N[C@@H]([C@@H](C)CC)C(=O)O[C@H]1C` gave an MIC of > 8 µg/mL (broth microdilution; ATCC 10798, Mueller-Hinton broth; 16 h, 37 °C).
`CCCCCCCCCCCCCCCC(=O)N[C@@H](CCCCN)C(=O)N[C@@H](CCCCN)C(=O)N(CCCCN)CC(=O)N[C@@H](CCCCN)C(=O)N[C@@H](CCCCN)C(N)=O` has an MIC of 16 µg/mL (broth microdilution; K12, water pH 7; 18 h, 37 °C).
For `CC[C@H](C)[C@H](NC(=O)[C@H](CCCNC(=N)N)NC(=O)[C@H](Cc1ccccc1)NC(=O)[C@H](CC(C)C)NC(=O)[C@H](CCCCN)NC(=O)[C@H](CO)NC(=O)[C@@H](NC(=O)[C@H](CC(C)C)NC(=O)[C@H](CCCCN)NC(=O)[C@H](C)NC(=O)[C@H](CC(N)=O)NC(=O)[C@H](CCCNC(=N)N)NC(=O)[C@H](Cc1ccc(O)cc1)NC(=O)[C@H](C)NC(=O)[C@@H](NC(=O)[C@H](CCCCN)NC(=O)[C@H](CC(N)=O)NC(=O)[C@H](CCCCN)NC(=O)[C@H](CC(C)C)NC(=O)[C@H](CO)NC(=O)[C@H](CC(C)C)NC(=O)[C@H](C)NC(=O)[C@H](C)NC(=O)[C@H](CO)NC(=O)[C@@H](NC(=O)[C@@H](NC(=O)[C@H](Cc1c[nH]c2ccccc12)NC(=O)[C@@H](NC(=O)[C@H](CO)NC(=O)[C@@H](NC(=O)[C@@H](N)CC(C)C)C(C)C)C(C)C)[C@@H](C)CC)[C@@H](C)CC)C(C)C)C(C)C)C(=O)N[C@@H](C)C(=O)N[C@@H](CC(C)C)C(=O)O`, the MIC was 1 µg/mL (25922; with: ZnCl2 8 mM).
For `CC(C)[C@H](NC(=O)[C@H](CCCCN)NC(=O)[C@H](CCCNC(=N)N)NC(=O)CNC(=O)[C@H](C)NC(=O)[C@H](CC(N)=O)NC(=O)[C@H](CCCNC(=N)N)NC(=O)[C@@H](NC(=O)[C@H](CCCCN)NC(=O)[C@H](CC(=O)O)NC(=O)[C@@H](NC(=O)[C@@H](NC(=O)[C@H](CCCNC(=N)N)NC(=O)[C@H](CCCNC(=N)N)NC(=O)[C@H](Cc1c[nH]c2ccccc12)NC(=O)[C@H](Cc1c[nH]c2ccccc12)NC(=O)CN)[C@@H](C)O)C(C)C)C(C)C)C(=O)O`, the MIC was > 256 µg/mL (ATCC 25922; 18 h, 37 °C).

For quick reference, copied from above:
The MIC of `CCCCCCCCCCCCCCCCCC(=O)N[C@@H](CCCNC(=N)N)C(=O)N[C@@H](CCCNC(=N)N)C(=O)N[C@@H](CCCNC(=N)N)C(=O)N[C@@H](CCCNC(=N)N)C(=O)N[C@@H](CCCNC(=N)N)C(N)=O` is reported as ≥ 32 µg/mL (broth microdilution; K12; 16-24 h, 37 °C, prepared at pH 7).
The MIC of `C[C@@](O)(C(F)F)[C@H](NC(=O)c1ccc(C#CC#CC2CC2)cc1)C(=O)NO` is reported as 0.01 µg/mL (broth microdilution; W3110, CAMHB).
The MIC of `CCO[C@H]1[C@H](O)[C@@H](N)[C@@H](O[C@H]2[C@H](O[C@@H]3O[C@H](CO)[C@@H](O[C@H]4O[C@@H](CN)[C@@H](O)[C@H](O)[C@H]4N)[C@H]3O)[C@@H](O)[C@H](N)C[C@@H]2N)O[C@@H]1CO` is reported as 32 µg/mL (broth microdilution; clinical isolate AG 002).
`Cc1cc(N)c2cc(NC(=O)c3ccc4c(-c5ccccc5O)cccc4c3)ccc2n1` has an MIC of 6.25 µM (ΔtolC efflux-deficient).
